Measurements gathered from unrelated publications.
Values joined by “and” are separate records of one study, mostly repeats; a detail may differ.
Target: cAMP-dependent protein kinase catalytic subunit PRKX (PRKX, Homo sapiens, UniProt P51817)

Cc1cnc2nc1Nc1cccc(c1)COC/C=C/COCc1cc(ccc1OCCN1CCOCC1)N2
remaining binding (binding; 0.1 µM): 98%

NC(=O)[C@@H](O)C[C@H]1CCc2sc3ncnc(O[C@H]4CC[C@H](N5CCOCC5)CC4)c3c21
inhibition (enzyme activity, inhibitor; 10 µM): 5%

CCN1CCN(Cc2ccc(C(=O)Nc3ccc(C)c(NCc4cnc5[nH]ccc5c4OC)c3)cc2C(F)(F)F)CC1
remaining binding (binding, competition with immobilised ligand; 1 µM): 100%

Cc1ccc(-c2c(/C=C(\C#N)C(=O)NC(C)C)n(CCCO)c3ncnc(N)c23)cc1
remaining binding (cell-free assay, competition with immobilised ligand; 1 µM): 72%

C=CC(=O)N1CCCC(n2c(=O)c3ncccc3n(Cc3ccc(Oc4ccccc4)cc3)c2=O)C1 (stereo not drawn)
remaining binding (cell-free assay, competition with immobilised ligand; 1 µM): 94%

C=CC(=O)N1CCc2ccc(-n3c(=O)ccc4cnc5ccc(-c6cnn(C)c6)cc5c43)cc21
remaining binding (KINOMEscan; 1 µM; relative to: DMSO control): 100%

CCn1cc(C(=O)O)c(=O)c2c(N)c(F)c(NC3CCCCC3)cc21
inhibition (kinase activity; 0.1 µM, together with: ATP at Km): -14.5%

C=CC(=O)N1Cc2nc(-c3cc(-c4cc(Cl)cnc4Cl)c(F)cc3F)n(-c3ccncn3)c2C1
inhibition (cell-free assay, inhibitor; 1 µM): 6.8%

COc1c(Cl)cccc1Nc1c(-c2ccncc2C#C[C@@]2(C)CCCN2C(=O)/C=C/CN(C)C)[nH]c2c1C(=O)NCC2
remaining binding (cell-free assay, competition with immobilised ligand; 3 µM): 100%

Cc1cccc(O[C@H]2CCC[C@@H](C(C)CNCc3ccncc3)C2)c1 (relative stereo)
inhibition (enzyme activity, inhibitor; 1 µM): -1%

COc1cc(Nc2nc(C)cc(-c3cnn4nc(OC)ccc34)n2)cc(C(F)(F)F)c1
remaining activity (inhibitor; 1 µM; relative to: control): 87%

CNC1C[S+]2CC[S+]3CC[S+](C1)[Ru-4]321([N]=C=S)[n]2c3ccc(OC)cc3c3c4c(c5cc(F)c[n+]1c5c32)C(=O)NC4=O (stereo not drawn)
remaining binding (KinomeScan; 0.1 µM; relative to: untreated): 87%

CN1CCN(Cc2ccc(-c3ccc(CO[C@H]4CCC[C@@H]4NC(=O)c4cc(-c5cnn(C)c5)cnc4N)cc3)cc2)CC1
inhibition (enzyme activity, inhibitor; 0.1 µM): 3%

C=CC(=O)Nc1cccc(-c2cnc3[nH]cc(C(=O)NC(C)(C)C)c3n2)c1
inhibition (kinase activity; 0.1 µM): 2% and 3%

CNC(=O)C1CCN(c2cc(C)c(F)cc2NC(=O)c2ccc(-c3cc(O)ccc3C)c(C)c2)CC1
remaining binding (binding, competition with immobilised ligand; 1 µM): 89%

Excerpt of the above:
CN1CCN(Cc2ccc(-c3ccc(CO[C@H]4CCC[C@@H]4NC(=O)c4cc(-c5cnn(C)c5)cnc4N)cc3)cc2)CC1
inhibition (enzyme activity, inhibitor; 0.1 µM): 3%

COc1cc(Nc2nc(C)cc(-c3cnn4nc(OC)ccc34)n2)cc(C(F)(F)F)c1
remaining activity (inhibitor; 1 µM; relative to: control): 87%
